Assay results collected from several papers.
Each line is one published result; not all experiments were run side by side. ± gives the spread as reported.
Organism: Plasmodium falciparum

`CCCCCCCCc1cc(CN(Cc2ccccn2)Cc2ccccn2)c(O)c(CN(Cc2ccccn2)Cc2ccccn2)c1` has an IC50 of 527 ± 88 nM (growth, [3H]hypoxanthine incorporation; W2 chloroquine-resistant; 48 h).
`COc1cc2c3c4c1Oc1cc5c(cc1O4)[C@H](Cc1ccc(OCCCN(C)C)c(c1)Oc1ccc(cc1)C[C@@H]3N(C)CC2)N(C)CC5` gave an IC50 of 88 nM (parasite growth, SYBR Green I; artemisinin-resistant Cambodian isolates; median).
`CCC1=CC(=CNC2CCCCCC2)N=C1c1ccc[nH]1` has an IC50 of 523 nM (parasite growth; Dd2, chloroquine-resistant).
`CC[C@H](C)[C@@H]1NC(=O)[C@H](CCCCN)NC(=O)[C@H](CCCCN)NC(=O)[C@H](Cc2ccc(O)cc2)NC(=O)[C@H](CC(C)C)NC(=O)[C@@H]2CCCN2C(=O)[C@H](C)NC(=O)CNC(=O)CNC(=O)[C@H](CO)NC(=O)CNC(=O)CNC(=O)[C@H](CO)NC(=O)[C@H](CCC(=O)O)NC(=O)[C@H](CC(C)C)NC(=O)[C@H](CC(C)C)NC(=O)[C@H](CCCCN)NC(=O)[C@H](CCCCN)NC(=O)[C@H]([C@@H](C)CC)NC(=O)[C@H]([C@@H](C)CC)NC(=O)[C@H](CCCCN)NC(=O)[C@H](CCCCN)NC(=O)[C@H](Cc2ccc(O)cc2)NC(=O)[C@H](CC(C)C)NC(=O)[C@@H]2CCCN2C(=O)CNC(=O)CNC(=O)CSC[C@@H](C(N)=O)NC(=O)[C@H](CC(C)C)NC(=O)[C@H](CCCCN)NC(=O)[C@H](CCCCN)NC(=O)[C@H]([C@@H](C)CC)NC1=O` gave an IC50 of roughly 40000 nM (parasite growth; 3D7; 72 h, 5% serum plus Albumax II).
With `CCC1=C(C)C(c2ccc[nH]2)=NC1=CNC1CCCCCCC1` the IC50 was 201 nM (parasite growth; Dd2, chloroquine-resistant).
The IC50 of `O[Si](CCCN1CCCCC1)(c1ccc(F)cc1)C1CCCCC1` (centres unmarked) is reported as 16 nM (parasite proliferation, SYBR Green; 3D7; 72 h).
`Clc1ccc(C2=CC(c3ccc[nH]3)=NC2=CNC23CC4CC(CC(C4)C2)C3)cc1` gave an IC50 of greater than 250 nM (parasite growth; Dd2, chloroquine-resistant).
With `C=C1[C@@H]([C@@]2(C)C=CC(=O)C(C)(C)[C@@H]2CC(=O)OC)[C@@H](OC(C)=O)[C@H](OC(C)=O)[C@@]2(C)[C@H](c3ccoc3)C[C@H]3O[C@]132` the IC50 was 14400 ± 500 nM ([3H]hypoxanthine incorporation; W2, chloroquine-resistant).
The IC50 of `CCC1=CC(c2ccc[nH]2)=NC1=CNC1CCCCCCC1` is reported as greater than 250 nM (parasite growth; 7G8, chloroquine-resistant).
`S=C(Nc1ccccc1)c1cccc(C(=S)Nc2ccccc2)n1` has an IC50 of 146 nM (parasite growth, SYBR Green; DD2; 96 h, drug-resistant strain, blood stage).
The IC50 of `Clc1ccc(C2=CC(c3ccc[nH]3)=NC2=CNC2CCCCCCC2)cc1` is reported as 316 nM (parasite growth; 7G8, chloroquine-resistant).
`CC[C@H](C)[C@@H]1NC(=O)[C@H](CCCCN)NC(=O)[C@H](CCCCN)NC(=O)[C@H](Cc2ccc(O)cc2)NC(=O)[C@H](CC(C)C)NC(=O)[C@@H]2CCCN2C(=O)[C@H](C)NC(=O)CNC(=O)CNC(=O)[C@H](CO)NC(=O)CNC(=O)CNC(=O)[C@H](CCCNC(=N)N)NC(=O)[C@H](CCC(=O)O)NC(=O)[C@H](CC(C)C)NC(=O)[C@H](Cc2c[nH]cn2)NC(=O)[C@H](CCCCN)NC(=O)[C@H](CCCCN)NC(=O)[C@H]([C@@H](C)CC)NC(=O)[C@H]([C@@H](C)CC)NC(=O)[C@H](CCCCN)NC(=O)[C@H](CCCCN)NC(=O)[C@H](Cc2ccc(O)cc2)NC(=O)[C@H](CC(C)C)NC(=O)[C@@H]2CCCN2C(=O)CNC(=O)CNC(=O)[C@@H](NC(=O)CN)CSSC[C@@H](C(N)=O)NC(=O)[C@H](Cc2c[nH]cn2)NC(=O)[C@H](CCCCN)NC(=O)[C@H](CCCCN)NC(=O)[C@H]([C@@H](C)CC)NC1=O` has an IC50 of greater than 67500 nM (parasite growth; 3D7; 72 h, 5% serum plus Albumax II).
With `CC1=CC(c2ccc[nH]2)=NC1=CNC12CC3CC(CC(C3)C1)C2` the IC50 was 4.3 nM (parasite growth; 7G8, chloroquine-resistant).
`C[C@H]1[C@H](OC(=O)CCC(=O)O)O[C@@H]2O[C@@]3(C)CC[C@H]4[C@H](C)CC[C@@H]1[C@@]24OO3` has an IC50 of less than 1 µg/mL (parasite growth; 48 h, drug-resistant strain, blood stage).
`CC[C@H](C)[C@@H]1NC(=O)[C@H](CCCCN)NC(=O)[C@H](CCCCN)NC(=O)[C@H](Cc2ccc(O)cc2)NC(=O)[C@H](CC(C)C)NC(=O)[C@@H]2CCCN2C(=O)[C@H](C)NC(=O)CNC(=O)CNC(=O)[C@H](CO)NC(=O)CNC(=O)CNC(=O)[C@H](CO)NC(=O)[C@H](CCCCN)NC(=O)[C@H](CC(C)C)NC(=O)[C@H](CC(C)C)NC(=O)[C@H](CCCCN)NC(=O)[C@H](CCCNC(=N)N)NC(=O)[C@H]([C@@H](C)CC)NC(=O)[C@H]([C@@H](C)CC)NC(=O)[C@H](CCCCN)NC(=O)[C@H](CCCCN)NC(=O)[C@H](Cc2ccc(O)cc2)NC(=O)[C@H](CC(C)C)NC(=O)[C@@H]2CCCN2C(=O)CNC(=O)CNC(=O)[C@@H](NC(=O)CN)CSSC[C@@H](C(N)=O)NC(=O)[C@H](CC(C)C)NC(=O)[C@H](CCCCN)NC(=O)[C@H](CCCNC(=N)N)NC(=O)[C@H]([C@@H](C)CC)NC1=O` gave an IC50 of 16400 ± 2000 nM (parasite growth; 3D7; 72 h, 5% serum plus Albumax II).
`N#Cc1c(-c2ccco2)[n+]([O-])c2ccc(C(F)(F)F)cc2[n+]1[O-]` gave an IC50 of 370 ± 120 nM (parasite growth, [3H]hypoxanthine incorporation; K1 chloroquine-resistant).
The IC50 of `COc1ccc2cc1Oc1cc3c(cc1OC)CCN(C)C3Cc1ccc(cc1)Oc1c(O)c(OC)cc3c1C(C2)N(C)CC3` (centres unmarked) is reported as 470 nM (parasite growth, SYBR Green; blood stage).
`c1cncc(CCCOCCCCCCCCOC2CCCCO2)c1` (centres unmarked) gave an IC50 of 37700 ± 200 nM (anti-HRPII ELISA; W2 chloroquine-resistant; 72 h).
With `COc1cccc2c(-c3ccc4c(c3O)[C@@H](C)N[C@H](C)C4)c(CO)cc(OC)c12` the IC50 was 84 nM (parasite growth, SYBR Green; W2; 96 h, drug-resistant strain, blood stage).
With `C=CC1CN2CCC1CC2C(OC(=O)NCCCCCCNC(=O)OC(c1ccnc2ccc(OC)cc12)C1CC2CCN1CC2C=C)c1ccnc2ccc(OC)cc12` (centres unmarked) the IC50 was 298 ± 30.1 nM (parasite growth, [3H]-hypoxanthine incorporation; HB3, chloroquine-sensitive).
The IC50 of `CC[C@H](C)[C@@H]1NC(=O)[C@H](CCCCN)NC(=O)[C@H](CCCCN)NC(=O)[C@H](Cc2ccc(O)cc2)NC(=O)[C@H](CC(C)C)NC(=O)[C@@H]2CCCN2C(=O)[C@H](C)NC(=O)CNC(=O)CNC(=O)[C@H](CO)NC(=O)CNC(=O)CNC(=O)[C@H](CO)NC(=O)[C@H](CCC(=O)O)NC(=O)[C@H](CC(C)C)NC(=O)[C@H](CC(C)C)NC(=O)[C@H](CCCNC(=N)N)NC(=O)[C@H](CCCCN)NC(=O)[C@H]([C@@H](C)CC)NC(=O)[C@H]([C@@H](C)CC)NC(=O)[C@H](CCCCN)NC(=O)[C@H](CCCCN)NC(=O)[C@H](Cc2ccc(O)cc2)NC(=O)[C@H](CC(C)C)NC(=O)[C@@H]2CCCN2C(=O)CNC(=O)CNC(=O)[C@@H](NC(=O)CN)CSSC[C@@H](C(N)=O)NC(=O)[C@H](CC(C)C)NC(=O)[C@H](CCCNC(=N)N)NC(=O)[C@H](CCCCN)NC(=O)[C@H]([C@@H](C)CC)NC1=O` is reported as 4800 ± 100 nM (parasite growth; 3D7; 72 h, Albumax II medium, no serum).
`CC1=CC(c2ccc[nH]2)=NC1=CNC1CCCCCCC1` gave an IC50 of greater than 250 nM (parasite growth; 7G8, chloroquine-resistant).
`CC1N=C(CCCCCCCCCCC2=CC(CCCCCCCCCCC3=NC(C)C(O)CC3)C3CCCN3C2)CCC1O` (centres unmarked) gave an IC50 of 0.6 ± 0.005 µg/mL (pLDH; W2 chloroquine-resistant).
With `CCCCc1cc(CN(Cc2ccccn2)Cc2ccccn2)c(O)c(CN(Cc2ccccn2)Cc2ccccn2)c1` the IC50 was 394 ± 49 nM (growth, [3H]hypoxanthine incorporation; W2 chloroquine-resistant; 48 h).
The IC50 of `CCC1=CC(=CNC2CCCCCCC2)N=C1c1ccc[nH]1` is reported as 1330 nM (parasite growth; 7G8, chloroquine-resistant).
`COC1=CC(c2ccc[nH]2)=NC12O[C@@H](C)C[C@@H]1CCCCC(=O)CCc3ccc([nH]3)[C@H]12` (some centres unmarked) gave an IC50 of 199 nM (parasite growth; 7G8; drug-resistant strain, blood stage).
The IC50 of `CCCCNCC(O)Cn1c2ccc(Cl)cc2c2cc(Cl)ccc21` (centres unmarked) is reported as 91 ± 26 nM (SYBR Green I; Dd2 chloroquine-resistant; 72 h).
With `O=C(O)[C@@H]1Cc2c([nH]c3ccccc23)[C@@H](c2ccc(Cl)cc2F)N1` the IC50 was 860 ± 80 nM (parasite growth; Dd2; 72 h).
`CC[C@H](C)[C@@H]1NC(=O)[C@H](CCCNC(=N)N)NC(=O)[C@H](CCCNC(=N)N)NC(=O)[C@H](Cc2ccc(O)cc2)NC(=O)[C@H](CC(C)C)NC(=O)[C@@H]2CCCN2C(=O)[C@H](C)NC(=O)CNC(=O)CNC(=O)[C@H](CO)NC(=O)CNC(=O)CNC(=O)[C@H](CO)NC(=O)[C@H](CCC(=O)O)NC(=O)[C@H](CC(C)C)NC(=O)[C@H](CC(C)C)NC(=O)[C@H](CCCNC(=N)N)NC(=O)[C@H](CCCNC(=N)N)NC(=O)[C@H]([C@@H](C)CC)NC(=O)[C@H]([C@@H](C)CC)NC(=O)[C@H](CCCNC(=N)N)NC(=O)[C@H](CCCNC(=N)N)NC(=O)[C@H](Cc2ccc(O)cc2)NC(=O)[C@H](CC(C)C)NC(=O)[C@@H]2CCCN2C(=O)CNC(=O)CNC(=O)[C@@H](NC(=O)CN)CSSC[C@@H](C(N)=O)NC(=O)[C@H](CC(C)C)NC(=O)[C@H](CCCNC(=N)N)NC(=O)[C@H](CCCNC(=N)N)NC(=O)[C@H]([C@@H](C)CC)NC1=O` has an IC50 of 4800 ± 200 nM (parasite growth; 3D7; 72 h, Albumax II medium, no serum).
`O=C1C(O)=C(CN2CCCC2)C(=O)c2ccccc21` gave an IC50 of 14100 nM (parasite growth; W2; drug-resistant strain, blood stage).
With `CC[C@H](C)[C@@H]1NC(=O)[C@H](CCCCN)NC(=O)[C@H](CCCCN)NC(=O)[C@H](Cc2ccc(O)cc2)NC(=O)[C@H](CC(C)C)NC(=O)[C@@H]2CCCN2C(=O)[C@H](C)NC(=O)CNC(=O)CNC(=O)[C@H](CO)NC(=O)CNC(=O)CNC(=O)[C@H](CO)NC(=O)[C@H](CCC(=O)O)NC(=O)[C@H](CC(C)C)NC(=O)[C@H](CC(C)C)NC(=O)[C@H](CCCCN)NC(=O)[C@H](CCCCN)NC(=O)[C@H](C(C)C)NC(=O)[C@H]([C@@H](C)CC)NC(=O)[C@H](CCCCN)NC(=O)[C@H](CCCCN)NC(=O)[C@H](Cc2ccc(O)cc2)NC(=O)[C@H](CC(C)C)NC(=O)[C@@H]2CCCN2C(=O)CNC(=O)CNC(=O)[C@@H](NC(=O)CN)CSSC[C@@H](C(N)=O)NC(=O)[C@H](CC(C)C)NC(=O)[C@H](CCCCN)NC(=O)[C@H](CCCCN)NC(=O)[C@H](C(C)C)NC1=O` the IC50 was roughly 45000 nM (parasite growth; 3D7; 72 h, 5% serum plus Albumax II).
`COc1ccc2c(=O)c3cc(OS(=O)(=O)C(F)(F)F)ccc3[nH]c2c1` has an IC50 of 56.6 nM (parasite growth, SYBR Green I fluorescence; 7G8, multidrug resistant).
